Assay results pooled from the literature.
Numbered parts are unrelated; each lists some results of a single study. Substitutions count along the parent as printed.

Series 1 — method: protein-binding microarray; molecule type: double-stranded DNA, one strand shown; matrix: in vitro; concentration: 2540 nM top; notes: 60-bp whole probe; together with: salmon DNA 0.4 mg/ml; relative to: random background probes; reading: higher = stronger binding; all sequences stand within: GCCTAGCAC … GTCTTGATTCGCTTGACGCTGCTG
Target: Interferon regulatory factor 3, full length, phosphomimetic (IRF3, Homo sapiens, UniProt Q14653, residues 1-427, S386D/S396D/S398D/S402D/T404D/S405D)
Target sequence (chain): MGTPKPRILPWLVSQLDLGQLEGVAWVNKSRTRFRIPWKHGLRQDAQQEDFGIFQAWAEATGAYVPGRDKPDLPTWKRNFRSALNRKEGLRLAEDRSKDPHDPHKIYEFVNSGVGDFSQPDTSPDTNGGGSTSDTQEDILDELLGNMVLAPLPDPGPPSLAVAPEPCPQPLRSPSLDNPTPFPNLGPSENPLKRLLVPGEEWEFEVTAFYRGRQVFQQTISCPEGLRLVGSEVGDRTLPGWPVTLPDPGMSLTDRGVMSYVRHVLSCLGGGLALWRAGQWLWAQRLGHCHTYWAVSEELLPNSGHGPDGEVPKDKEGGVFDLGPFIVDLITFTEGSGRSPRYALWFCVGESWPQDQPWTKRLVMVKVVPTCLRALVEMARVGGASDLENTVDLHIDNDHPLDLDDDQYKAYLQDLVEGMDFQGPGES
`GACGGACAGGGTCTCGGGACGTGCTAG`: “fitted relative affinity” -0.792 z-score.
For `GACGAACTGGGTCTCGGGACGTGCTAG`, “fitted relative affinity” read -0.519 z-score.
Under “fitted relative affinity”, `TTAGGTATCGGGTTTCGGTGAGTGCTA` is recorded as 3.05 z-score.
`TCACAACTCGCCTTTTTTACTGTGCTA`: “fitted relative affinity” 1.43 z-score.
`GACGGTTTCGACTATCGGGCCGTGCTA`: “fitted relative affinity” 2.69 z-score.
`TTCTAAATATCTTTGTTGAAGTGCTAG`: “fitted relative affinity” 0.407 z-score.
For `GACGGCCTGGGTCTCGGGACGTGCTAG`, “fitted relative affinity” read -1.23 z-score.
`TTTGACATCTTCATCAACTAGTGCTAG`: “fitted relative affinity” 0.251 z-score.
For `AGAGCCTGGGGATGCAGAGAGTGCTAG`, “fitted relative affinity” read -1.24 z-score.
Under “fitted relative affinity”, `TTAGGACTTCTACTGCTTTAGTGCTAG` is recorded as -0.513 z-score.
`AACGGACTGGACTATCGGGACGTGCTA` — result for “fitted relative affinity”: -0.322 z-score.
`AACGGACTGGGGTTTCGGGACGTGCTA`: “fitted relative affinity” 0.676 z-score.

Series 2 — method: protein binding microarray; molecule type: double-stranded DNA, one strand shown; matrix: in vitro; concentration: not given; relative to: not given; reading: higher = stronger binding
Target: Histone acetyltransferase KAT6A, winged helix 1, GST fusion (KAT6A, Homo sapiens, UniProt Q92794, residues 1-85)
Notes: 8-mer, flanks averaged, mean of 2 arrays, mostly near background
Construct (chain): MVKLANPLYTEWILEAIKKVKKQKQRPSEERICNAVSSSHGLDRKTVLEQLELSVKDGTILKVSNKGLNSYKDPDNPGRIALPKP
`AACGAGAC` gave an E-score of 0.0866.
With `AAAAAAGT` the E-score was -0.0868.
With `AGCAGAAG` the E-score was -0.053.
With `CGGACGAG` the E-score was -0.0119.
`CAGGAGAC` gave an E-score of -0.0764.
The E-score of `CCGCCAGA` is reported as -0.0269.
With `CAGTCAGG` the E-score was -0.159.
`ACCAGGTG` gave an E-score of -0.0721.
With `CATAGGAA` the E-score was -0.17.
For `ATATTGCA`, the E-score was -0.2.
`AGGCCGCC` gave an E-score of 0.336.
`TCTTGGCA` has an E-score of -0.217.
For `ACACCGCT`, the E-score was 0.176.
`ACTAAGAG` has an E-score of -0.114.
`CTGTGGTC` gave an E-score of -0.0901.
With `AGTGGGCC` the E-score was -0.221.
With `AACGTGCC` the E-score was 0.0532.
`AGGTCGGA` has an E-score of -0.0176.
With `ACCTTAGA` the E-score was -0.0409.
`GCCTGTAA` has an E-score of -0.111.
`GGTAACCA` gave an E-score of 0.0236.
For `AAGAAAGT`, the E-score was -0.089.
For `CTTGACAC`, the E-score was -0.104.
The E-score of `AATACACG` is reported as 0.0475.
For `CCTGGATC`, the E-score was -0.134.

Series 3 — method: DHFR PCA, deep sequencing; matrix: yeast; together with: (+)-ABA 0.11 µM; relative to: wild-type fitted maximum; reading: higher = stronger binding
Target: ABI1, truncated, D143A, DHFR fusion (Arabidopsis thaliana)
Notes: methotrexate growth selection, single substitutions
Starting sequence: PYL1, truncated, DHFR fusion (Arabidopsis thaliana); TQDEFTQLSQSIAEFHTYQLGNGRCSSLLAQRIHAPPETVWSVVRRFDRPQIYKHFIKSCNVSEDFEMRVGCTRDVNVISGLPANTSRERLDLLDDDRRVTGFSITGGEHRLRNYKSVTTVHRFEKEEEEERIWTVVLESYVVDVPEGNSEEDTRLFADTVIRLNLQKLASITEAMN
Under “relative binding score”, `N177I` is recorded as 27.7%.
Under “relative binding score”, `N61H` is recorded as 48.1%.
Under “relative binding score”, `E4Q` is recorded as 17.1%.
For `F47H`, “relative binding score” read -2.58%.
For `R113H`, “relative binding score” read 29%.
`L94Q` — result for “relative binding score”: -15.5%.
For `E38G`, “relative binding score” read 1.8%.
Under “relative binding score”, `V76L` is recorded as 10.9%.
Under “relative binding score”, `A84Q` is recorded as 24.9%.
`L164W`: “relative binding score” 12.6%.
`I162M`: “relative binding score” 11.2%.
`R123F` — result for “relative binding score”: -8.44%.
Under “relative binding score”, `A158I` is recorded as 64.3%.
Under “relative binding score”, `N61F` is recorded as 26.1%.

Series 4 — method: RNA Bind-n-Seq; molecule type: RNA; matrix: in vitro; concentration: 100 nM; relative to: input RNA pool; reading: higher = stronger binding
Target: RING finger protein unkempt homolog, zinc fingers 1-6, SBP tag (UNK, Homo sapiens, UniProt Q9C0B0, residues 30-357)
UniProt Q9C0B0, sequence (30-357, looked up): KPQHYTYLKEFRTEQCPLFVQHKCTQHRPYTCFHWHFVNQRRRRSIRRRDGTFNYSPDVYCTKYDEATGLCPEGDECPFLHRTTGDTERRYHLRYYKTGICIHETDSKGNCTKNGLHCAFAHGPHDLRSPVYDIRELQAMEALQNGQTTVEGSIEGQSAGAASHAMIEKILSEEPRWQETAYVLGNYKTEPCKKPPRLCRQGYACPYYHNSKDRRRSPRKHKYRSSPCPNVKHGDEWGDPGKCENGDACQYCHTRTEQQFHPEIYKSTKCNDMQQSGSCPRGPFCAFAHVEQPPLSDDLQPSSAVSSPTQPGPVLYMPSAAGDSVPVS
Notes: RNA with constant flanks, vertebrate orthologous sites, ends assumed
`GGGAGUUCUACAGUCCGACGAUCAAAUGCCUUCUGUUCCAUUAAGAAGAACAAAUCUAGUCCCCCAGGUAUAAAACUCCUAAAUAGCUAUUUUUGAAAUGAAAAUGUUUAAAUUUUGUAAAUCAGCUGUUGCCACUAUACAACCAACAGAGGAUUGAGCAUCA` gave a bound/input enrichment of 1.01 ratio.
With `GGGAGUUCUACAGUCCGACGAUCGUGACUUUGGAAGUCCGCAGUGUCUCAUUGCAGAUAAUUUUUAGCUUAGGGCCUGGUGGCUGGGUCGGUUCUCUCCUUUCCAAUCGGAGACCUCUGCCGCAAACAUGCUCCGCCAGAUCACAACAGAGGAUUGAGCAUCA` the bound/input enrichment was 0.439 ratio.
For `GGGAGUUCUACAGUCCGACGAUCCAACUCCAUGGUGGAGGGCUCAGAGCUCAAAAAGCUUCGCUCCAACUCCAGAAUUUACCACCGGUAUUUUCUGCUGGACGCUGACAUGCAGAGCCUGAGGUGGGAACCAUCUAAGAAGGACAACAGAGGAUUGAGCAUCA`, the bound/input enrichment was 0.15 ratio.
For `GGGAGUUCUACAGUCCGACGAUCGGCAACCCAGGGAUUCAGGACUGGUCUGAUAAAUGCCCCCCACAGAUAUGGAACUGGCACUCGGGGUCAGUCCAGACCUUAAUAAACUAUUUUUUUGUAUUUAUUGUUUGAAUUUAUUUUCAACAGAGGAUUGAGCAUCA`, the bound/input enrichment was 0.324 ratio.

Series 5 — method: universal PBM; molecule type: double-stranded DNA, one strand shown; matrix: in vitro; concentration: not given; reading: higher = stronger binding
Target: Sal-like protein 4, full length isoform B (SALL4, Homo sapiens, UniProt Q9UJQ4-2, residues 1-616)
Notes: 8-mer, flanks averaged, mean of replicates
For `ATCCCATA`, the E-score was 0.215.
For `ACGGTCCC`, the E-score was -0.337.
With `CCAGCAGG` the E-score was -0.352.
The E-score of `ATGTAAAG` is reported as 0.155.
With `TGAGCCCA` the E-score was -0.212.
For `CATCAGGG`, the E-score was -0.0558.
With `GACTTGAA` the E-score was 0.0232.
`GTGCCCAC` gave an E-score of -0.236.
`GGACCTAA` has an E-score of -0.116.
`GACTCATA` gave an E-score of 0.195.
The E-score of `CATTATCA` is reported as 0.29.
`AATCATTG` has an E-score of 0.248.
`TCCACCAA` gave an E-score of -0.07.
The E-score of `ACAAGAAG` is reported as -0.0139.

Series 6 — method: RNA Bind-n-Seq; molecule type: RNA; matrix: in vitro; concentration: 200 nM; notes: whole 134-nt RNA, ends assumed; together with: 150 mM KCl; relative to: input library; reading: higher = stronger binding
Target: Fragile X messenger ribonucleoprotein 1, C-terminal low-complexity region (Fmr1, Mus musculus, UniProt P35922)
All sequences stand within: GGGAGUUCUACAGUCCGACGAUC … UGGAAUUCUCGGGUGUCAAGG
For `UCAAUGCCGGCUAUGCCCUGGCCCCAGCCACCAGUGCCAACGACAGCGAGCAGCAGAGCCUGUCCAGCGAUGCAGACACCCUGUCCCUCA`, the log2 enrichment was 0.291.
`UAACUUUAGAGGAGGAUCUGAUGGAUAUGGCAGUGGACGUGGAUUUGGGGAUGGCUAUAAUGGGUAUGGAGAAGGACCUGGAGGUGGCAA` gave a log2 enrichment of 0.246.
`AAGUCCUGUGCUACACAUCGUAUGUACCGAAUCGGAGGAAAAAAAGGAAAAAAAGGAAAGUAUUAUGUUACGCCGUUCGGAUCUGCACUU` has a log2 enrichment of -0.879.
With `CCUGUGCUACACAUCGUAUGUACCGAAUCGGGAAAAAAAGGGAAAAAAAGGGUUUUUGGGAAAGUAUUAUGUUACGCCGUUCGGAUCUGC` the log2 enrichment was -0.683.
For `ACCAUGCAGGUGGGCAUCUUUGGGAAGUGAAACAAGGGGGGGAUAGGGAGGGGGGUAACACUUUGGGAACAGGUGGUCCCAGGUCGUUUC`, the log2 enrichment was 1.2.
For `AAGUCCUGUGCUACACAUCGUAUGUACCGAAUCGGCCCCGGGGCCCCGGGGCCCCGGAAAGUAUUAUGUUACGCCGUUCGGAUCUGCACU`, the log2 enrichment was -0.0567.
`CACAGACAACACGCACCCACACAGACACAGAGGGAAGGGGUUGGGAUGGGGACAGGGUCCACAGCAGGGCGGGGUAGGACCCCAGCCCCU` gave a log2 enrichment of 1.19.
For `AAGUCCUGUGCUACACAUCGUAUGUACCGAAUCGGGCCCCGGCCCCGGCCCCGGGGAAAGUAUUAUGUUACGCCGUUCGGAUCUGCACUU`, the log2 enrichment was -0.586.
`AAGUCCUGUGCUACACAUCGUAUGUACCGAAUCGGCCCCCGGCCCCCGGCCCCCGGGAAAGUAUUAUGUUACGCCGUUCGGAUCUGCACU` has a log2 enrichment of -0.246.

For quick reference, copied from above (series 3):
Under “relative binding score”, `E4Q` is recorded as 17.1%.
Under “relative binding score”, `A158I` is recorded as 64.3%.
For `R113H`, “relative binding score” read 29%.
Under “relative binding score”, `N61F` is recorded as 26.1%.
`I162M`: “relative binding score” 11.2%.
`R123F` — result for “relative binding score”: -8.44%.
`L164W`: “relative binding score” 12.6%.
For `E38G`, “relative binding score” read 1.8%.
